Experimental data collected from several papers.
Compare with care: the assays were run in different laboratories. Numbers after ± are the reported error.
U2AF2: U2AF2 148-342 (Homo sapiens, UniProt P26368)
Chain of UniProt P26368 (whole entry, looked up): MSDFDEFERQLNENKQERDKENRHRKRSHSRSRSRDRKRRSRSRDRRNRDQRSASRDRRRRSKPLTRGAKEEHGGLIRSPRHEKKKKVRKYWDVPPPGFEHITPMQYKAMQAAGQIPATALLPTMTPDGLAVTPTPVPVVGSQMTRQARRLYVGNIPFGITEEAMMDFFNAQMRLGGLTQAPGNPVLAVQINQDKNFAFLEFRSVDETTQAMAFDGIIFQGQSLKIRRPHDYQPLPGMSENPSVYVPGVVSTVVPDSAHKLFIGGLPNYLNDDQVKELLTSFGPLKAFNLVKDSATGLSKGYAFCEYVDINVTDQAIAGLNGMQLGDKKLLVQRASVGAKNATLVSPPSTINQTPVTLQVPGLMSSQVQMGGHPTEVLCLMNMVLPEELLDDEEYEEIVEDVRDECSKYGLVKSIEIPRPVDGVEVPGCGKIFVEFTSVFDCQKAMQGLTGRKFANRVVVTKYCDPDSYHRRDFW
Chain of UniProt O24606 (whole entry, looked up): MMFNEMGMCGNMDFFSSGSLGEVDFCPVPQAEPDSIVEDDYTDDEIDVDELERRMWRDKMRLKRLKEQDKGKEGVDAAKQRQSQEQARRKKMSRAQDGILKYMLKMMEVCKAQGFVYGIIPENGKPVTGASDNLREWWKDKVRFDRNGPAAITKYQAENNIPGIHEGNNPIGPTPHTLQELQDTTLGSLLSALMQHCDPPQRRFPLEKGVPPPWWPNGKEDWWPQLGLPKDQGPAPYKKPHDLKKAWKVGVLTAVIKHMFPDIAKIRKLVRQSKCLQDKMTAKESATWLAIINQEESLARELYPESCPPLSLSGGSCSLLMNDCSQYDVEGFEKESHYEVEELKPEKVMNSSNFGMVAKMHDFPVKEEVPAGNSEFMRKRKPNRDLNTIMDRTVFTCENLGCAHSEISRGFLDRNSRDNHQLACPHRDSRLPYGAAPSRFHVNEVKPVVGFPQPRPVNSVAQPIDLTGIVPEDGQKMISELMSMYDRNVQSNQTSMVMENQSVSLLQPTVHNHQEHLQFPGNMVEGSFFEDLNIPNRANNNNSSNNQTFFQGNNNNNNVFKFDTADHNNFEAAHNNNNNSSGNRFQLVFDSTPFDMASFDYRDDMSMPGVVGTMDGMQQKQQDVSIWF
Chain of UniProt P19544 (whole entry, looked up): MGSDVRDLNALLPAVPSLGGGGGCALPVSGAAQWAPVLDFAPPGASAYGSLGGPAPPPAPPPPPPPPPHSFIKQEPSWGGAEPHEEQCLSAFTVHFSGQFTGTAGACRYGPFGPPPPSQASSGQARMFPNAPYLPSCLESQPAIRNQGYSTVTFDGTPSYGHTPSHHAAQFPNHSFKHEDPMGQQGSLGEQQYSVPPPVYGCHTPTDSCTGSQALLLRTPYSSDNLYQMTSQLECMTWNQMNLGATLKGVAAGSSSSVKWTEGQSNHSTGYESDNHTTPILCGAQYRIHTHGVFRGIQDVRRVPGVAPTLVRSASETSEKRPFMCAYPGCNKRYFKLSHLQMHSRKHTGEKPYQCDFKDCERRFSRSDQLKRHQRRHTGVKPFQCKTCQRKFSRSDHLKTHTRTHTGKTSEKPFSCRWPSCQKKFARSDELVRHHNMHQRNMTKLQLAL
Chain of UniProt Q9Y6M1 (whole entry, looked up): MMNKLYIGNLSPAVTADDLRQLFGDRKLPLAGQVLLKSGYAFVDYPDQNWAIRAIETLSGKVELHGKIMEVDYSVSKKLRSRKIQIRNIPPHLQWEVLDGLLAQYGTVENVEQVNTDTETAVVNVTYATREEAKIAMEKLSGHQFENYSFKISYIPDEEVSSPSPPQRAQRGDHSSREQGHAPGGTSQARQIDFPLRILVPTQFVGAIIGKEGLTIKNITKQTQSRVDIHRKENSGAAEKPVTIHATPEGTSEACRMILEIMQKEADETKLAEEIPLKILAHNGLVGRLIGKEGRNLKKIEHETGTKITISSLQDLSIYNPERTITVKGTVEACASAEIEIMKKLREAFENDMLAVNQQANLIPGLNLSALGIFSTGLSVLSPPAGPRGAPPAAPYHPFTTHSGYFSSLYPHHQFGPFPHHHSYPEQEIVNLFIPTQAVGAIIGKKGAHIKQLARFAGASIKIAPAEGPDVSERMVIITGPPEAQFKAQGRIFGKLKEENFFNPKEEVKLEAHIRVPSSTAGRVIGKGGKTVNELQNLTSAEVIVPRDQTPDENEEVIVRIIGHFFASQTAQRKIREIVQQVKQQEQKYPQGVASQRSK
Chain of UniProt Q04206 (whole entry, looked up): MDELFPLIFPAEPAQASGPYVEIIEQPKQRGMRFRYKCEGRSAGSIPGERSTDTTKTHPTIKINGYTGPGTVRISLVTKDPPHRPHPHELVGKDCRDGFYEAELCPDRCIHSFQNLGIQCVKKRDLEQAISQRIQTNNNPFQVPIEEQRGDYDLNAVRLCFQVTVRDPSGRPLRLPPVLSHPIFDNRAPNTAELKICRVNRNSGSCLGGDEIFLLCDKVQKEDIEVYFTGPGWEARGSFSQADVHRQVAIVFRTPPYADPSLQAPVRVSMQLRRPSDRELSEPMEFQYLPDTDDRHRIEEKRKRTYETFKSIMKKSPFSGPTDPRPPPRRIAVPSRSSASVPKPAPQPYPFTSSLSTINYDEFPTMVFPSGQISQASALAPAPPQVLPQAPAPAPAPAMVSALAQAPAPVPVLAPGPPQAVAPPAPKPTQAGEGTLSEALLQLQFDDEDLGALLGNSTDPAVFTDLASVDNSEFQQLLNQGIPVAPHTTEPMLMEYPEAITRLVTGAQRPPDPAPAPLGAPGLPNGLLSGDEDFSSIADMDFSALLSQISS
Chain of UniProt P29055 (whole entry, looked up): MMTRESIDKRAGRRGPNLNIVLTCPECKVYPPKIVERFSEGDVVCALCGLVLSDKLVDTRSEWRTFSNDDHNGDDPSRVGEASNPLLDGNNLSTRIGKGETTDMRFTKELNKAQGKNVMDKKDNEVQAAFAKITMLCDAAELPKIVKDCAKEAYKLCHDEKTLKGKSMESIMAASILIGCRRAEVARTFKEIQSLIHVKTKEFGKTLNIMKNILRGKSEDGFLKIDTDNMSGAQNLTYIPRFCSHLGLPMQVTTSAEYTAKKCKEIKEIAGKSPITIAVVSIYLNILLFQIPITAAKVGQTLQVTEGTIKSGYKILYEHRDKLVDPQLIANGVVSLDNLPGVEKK
Chain of UniProt Q9C5T4 (whole entry, looked up): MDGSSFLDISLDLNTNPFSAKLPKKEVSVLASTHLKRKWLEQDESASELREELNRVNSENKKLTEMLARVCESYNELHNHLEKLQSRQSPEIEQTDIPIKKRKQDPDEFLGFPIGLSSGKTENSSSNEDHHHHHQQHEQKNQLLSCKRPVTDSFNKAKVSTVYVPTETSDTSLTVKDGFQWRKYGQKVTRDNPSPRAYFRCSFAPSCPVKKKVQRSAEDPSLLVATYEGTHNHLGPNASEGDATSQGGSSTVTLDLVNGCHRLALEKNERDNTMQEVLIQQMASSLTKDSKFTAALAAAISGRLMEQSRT
Chain of UniProt Q15020 (whole entry, looked up): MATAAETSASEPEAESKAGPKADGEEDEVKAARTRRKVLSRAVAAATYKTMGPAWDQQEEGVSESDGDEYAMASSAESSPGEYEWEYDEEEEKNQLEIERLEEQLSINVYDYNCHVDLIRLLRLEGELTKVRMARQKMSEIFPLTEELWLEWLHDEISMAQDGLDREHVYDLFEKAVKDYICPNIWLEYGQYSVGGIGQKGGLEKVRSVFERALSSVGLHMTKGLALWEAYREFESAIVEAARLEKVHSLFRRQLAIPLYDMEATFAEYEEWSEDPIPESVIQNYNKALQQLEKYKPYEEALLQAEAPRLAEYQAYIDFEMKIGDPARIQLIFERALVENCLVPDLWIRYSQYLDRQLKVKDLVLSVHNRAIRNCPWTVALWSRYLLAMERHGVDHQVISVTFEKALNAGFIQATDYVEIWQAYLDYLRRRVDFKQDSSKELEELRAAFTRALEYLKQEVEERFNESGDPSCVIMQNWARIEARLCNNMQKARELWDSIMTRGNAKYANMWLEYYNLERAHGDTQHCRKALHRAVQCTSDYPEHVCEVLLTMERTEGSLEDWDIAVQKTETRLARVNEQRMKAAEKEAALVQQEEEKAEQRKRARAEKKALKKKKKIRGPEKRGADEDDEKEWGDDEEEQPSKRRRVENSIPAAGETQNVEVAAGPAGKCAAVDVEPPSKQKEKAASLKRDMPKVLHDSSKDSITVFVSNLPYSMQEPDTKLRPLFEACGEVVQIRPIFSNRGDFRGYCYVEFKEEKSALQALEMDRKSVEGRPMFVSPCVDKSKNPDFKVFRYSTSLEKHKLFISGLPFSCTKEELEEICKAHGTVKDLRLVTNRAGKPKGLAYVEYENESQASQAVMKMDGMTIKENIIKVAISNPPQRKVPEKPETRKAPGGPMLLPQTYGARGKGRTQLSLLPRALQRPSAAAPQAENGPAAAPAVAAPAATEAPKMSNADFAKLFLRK

For `DNA 1 TATAAGGGATTTTGCCGATTTCGGCCTATTGGTTAAAAAATGAGCTGATTTAACAAAAATTTAACGCGAATTTTAACAAAATATTAACGCTTACAATTTA / DNA 2 GACGCTGCCGAATTCTGGCTTGCTAGGACATCTTTGCCCACGTTGACCCGAATCAGCTCATTTTTTAACCAATAGGCCGAAATCGGCAAAATCCCTTATA (dsDNA; fork; unpaired arms)`, binding read “binds” (protein full length assumed (Mycosarcoma maydis, UniProt Q8NJ74); EMSA).
For `ACCAAGCGGTATGCGGAGCCGCCGCCGCCGCCG (dsDNA; blunt)`, binding read “no binding” (WT1 323-438 (Homo sapiens, UniProt P19544); EMSA; double-stranded DNA, one strand shown).
`GAATTCCTGTAAAGTAATGTGGAGCTCCGTTCGTCTCAAGTCAATCGGTCC (dsDNA; 5'-amino-C6 primer)` gave a Kd of 0.00403 ± 0.00104 µM (SUA7 full length assumed (Saccharomyces cerevisiae, UniProt P29055); array; double-stranded DNA, one strand shown; TFIIB alone).
Under binding, `CTGTTTTATTCACTTGATCTTCTTAATCTTTTAAATTGCCTATCTTTTGCTATGTTTTTGTTACAATTTAAATTGACAAGTACTTAGAAAAACAAACAAAAATGATATCTCTGTTCCATCTTAGATTATTCGTTTCTTATTTCTCTTAATATATATTTTTGAACACGCTTATTTCTCTTATATATGTTGCAATATTC (dsDNA)` is recorded as “binds” (WRKY18 full length assumed (Arabidopsis thaliana, UniProt Q9C5T4); EMSA; double-stranded DNA, one strand shown).
The Kd of `AUAAAAAUU (ssRNA)` is reported as 12.9 µM (U2AF2; sequencing of bound RNA; RNA; motif only).
For `ATCTGGGAATTCCCAGAT (dsDNA; blunt/self-complementary palindrome)`, binding read “binds” (RELA 19-191 (Homo sapiens, UniProt Q04206); NMR; double-stranded DNA, one strand shown; NaCl 50 mM).
For `AACUACAGGACUAUUUGACAUCAUAAUAAA (ssRNA)`, binding read “binds” (IGF2BP2 1-599 (Homo sapiens, UniProt Q9Y6M1); pull-down; RNA).
Under binding, `AAAAAAGAACCTCTGTCATTGTACAGAAAAATCGTAATAACCC (dsDNA)` is recorded as “no binding” (EIN3 1-628 (Arabidopsis thaliana, UniProt O24606); EMSA; double-stranded DNA, one strand shown).
For `CGUUAGUGU (ssRNA)`, the Kd was 7.52 µM (U2AF2; sequencing of bound RNA; RNA; motif only).
Under binding, `TTATATACTCTGATTCATTGTACCTGACGTTGCTGCTTTGTC (dsDNA)` is recorded as “binds” (NOR full length assumed (Solanum lycopersicum, UniProt A0A3Q7J5X6); EMSA; double-stranded DNA, one strand shown).
Under binding, `TCGGTACCCGTGGATC (dsDNA)` is recorded as “binds” (protein full length assumed E367A (Bacillus pumilus, UniProt A3FMN7); EMSA; double-stranded DNA, one strand shown).
`AGAAG (ssRNA)`: binding “no binding” (SART3 697-786 (Homo sapiens, UniProt Q15020); ITC; RNA).
For `AAAAGGTGGTGGGGGGGGTTGGTAGGGTGTCTTCT (structured DNA; 5' thiol, 3' methylene blue)`, binding read “binds” (INS 25-54;90-110 (Homo sapiens); square wave voltammetry; folded DNA; 20 µM, signal suppression).
For `AGCGTAGCACTGGGCT (dsDNA)`, binding read “no binding” (protein full length assumed D348A (Bacillus pumilus, UniProt A3FMN7); EMSA; double-stranded DNA, one strand shown).

Some of these lines once more:
`GAATTCCTGTAAAGTAATGTGGAGCTCCGTTCGTCTCAAGTCAATCGGTCC (dsDNA; 5'-amino-C6 primer)` gave a Kd of 0.00403 ± 0.00104 µM (SUA7 full length assumed (Saccharomyces cerevisiae, UniProt P29055); array; double-stranded DNA, one strand shown; TFIIB alone).
Under binding, `CTGTTTTATTCACTTGATCTTCTTAATCTTTTAAATTGCCTATCTTTTGCTATGTTTTTGTTACAATTTAAATTGACAAGTACTTAGAAAAACAAACAAAAATGATATCTCTGTTCCATCTTAGATTATTCGTTTCTTATTTCTCTTAATATATATTTTTGAACACGCTTATTTCTCTTATATATGTTGCAATATTC (dsDNA)` is recorded as “binds” (WRKY18 full length assumed (Arabidopsis thaliana, UniProt Q9C5T4); EMSA; double-stranded DNA, one strand shown).
